Experimental data of several laboratories.
Numbered parts are unrelated; each lists some results of a single study.
Chain of UniProt P10721 (whole entry, unmodified, looked up): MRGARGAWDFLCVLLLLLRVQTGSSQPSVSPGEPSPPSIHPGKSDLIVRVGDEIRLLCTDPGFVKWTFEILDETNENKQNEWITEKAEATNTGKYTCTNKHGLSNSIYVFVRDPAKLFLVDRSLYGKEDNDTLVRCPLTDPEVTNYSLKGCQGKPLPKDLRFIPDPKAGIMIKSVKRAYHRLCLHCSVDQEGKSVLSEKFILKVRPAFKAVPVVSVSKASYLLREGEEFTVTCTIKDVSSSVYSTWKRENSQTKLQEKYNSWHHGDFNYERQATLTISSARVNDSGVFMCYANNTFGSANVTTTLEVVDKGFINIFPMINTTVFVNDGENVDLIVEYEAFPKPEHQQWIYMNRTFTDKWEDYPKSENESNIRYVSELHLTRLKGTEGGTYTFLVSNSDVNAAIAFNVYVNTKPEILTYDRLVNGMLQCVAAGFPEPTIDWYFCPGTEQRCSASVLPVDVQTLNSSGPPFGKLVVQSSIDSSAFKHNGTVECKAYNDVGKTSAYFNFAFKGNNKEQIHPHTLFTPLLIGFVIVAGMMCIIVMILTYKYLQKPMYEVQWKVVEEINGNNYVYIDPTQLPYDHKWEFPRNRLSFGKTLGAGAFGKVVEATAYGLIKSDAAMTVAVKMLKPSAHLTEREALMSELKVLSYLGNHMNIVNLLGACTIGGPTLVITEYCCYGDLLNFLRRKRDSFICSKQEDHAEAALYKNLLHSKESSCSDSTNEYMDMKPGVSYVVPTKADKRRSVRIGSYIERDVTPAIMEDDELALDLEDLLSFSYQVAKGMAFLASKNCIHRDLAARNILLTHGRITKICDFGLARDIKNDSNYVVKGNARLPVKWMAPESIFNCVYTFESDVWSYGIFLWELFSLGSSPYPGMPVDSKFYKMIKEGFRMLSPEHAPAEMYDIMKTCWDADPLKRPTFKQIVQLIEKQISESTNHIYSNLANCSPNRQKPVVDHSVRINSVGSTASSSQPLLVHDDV
Chain of UniProt O43283 (whole entry, looked up): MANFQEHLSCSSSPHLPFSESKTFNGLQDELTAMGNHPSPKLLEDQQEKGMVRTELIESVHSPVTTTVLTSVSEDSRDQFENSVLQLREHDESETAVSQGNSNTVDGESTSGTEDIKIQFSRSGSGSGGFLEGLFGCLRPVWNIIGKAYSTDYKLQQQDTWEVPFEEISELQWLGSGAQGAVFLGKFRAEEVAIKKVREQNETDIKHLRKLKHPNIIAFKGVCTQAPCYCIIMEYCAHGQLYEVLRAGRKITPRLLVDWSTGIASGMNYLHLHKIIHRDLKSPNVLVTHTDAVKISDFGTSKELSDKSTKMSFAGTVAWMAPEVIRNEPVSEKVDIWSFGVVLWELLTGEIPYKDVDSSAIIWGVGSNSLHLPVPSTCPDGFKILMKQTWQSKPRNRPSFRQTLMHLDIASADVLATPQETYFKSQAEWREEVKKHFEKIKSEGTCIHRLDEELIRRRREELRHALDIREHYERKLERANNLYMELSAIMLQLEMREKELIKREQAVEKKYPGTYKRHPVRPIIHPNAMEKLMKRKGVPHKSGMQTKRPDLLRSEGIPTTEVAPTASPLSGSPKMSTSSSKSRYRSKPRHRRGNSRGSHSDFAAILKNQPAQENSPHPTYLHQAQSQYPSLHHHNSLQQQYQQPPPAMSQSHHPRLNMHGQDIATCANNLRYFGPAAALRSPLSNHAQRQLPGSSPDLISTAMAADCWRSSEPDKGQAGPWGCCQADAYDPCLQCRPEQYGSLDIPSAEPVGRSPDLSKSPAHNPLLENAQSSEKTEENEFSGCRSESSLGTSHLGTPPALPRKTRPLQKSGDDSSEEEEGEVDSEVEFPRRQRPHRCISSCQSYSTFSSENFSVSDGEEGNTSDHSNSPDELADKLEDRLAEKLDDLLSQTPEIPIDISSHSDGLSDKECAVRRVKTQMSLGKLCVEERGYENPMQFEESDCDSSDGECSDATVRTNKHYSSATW
Chain of UniProt Q08881 (whole entry, looked up): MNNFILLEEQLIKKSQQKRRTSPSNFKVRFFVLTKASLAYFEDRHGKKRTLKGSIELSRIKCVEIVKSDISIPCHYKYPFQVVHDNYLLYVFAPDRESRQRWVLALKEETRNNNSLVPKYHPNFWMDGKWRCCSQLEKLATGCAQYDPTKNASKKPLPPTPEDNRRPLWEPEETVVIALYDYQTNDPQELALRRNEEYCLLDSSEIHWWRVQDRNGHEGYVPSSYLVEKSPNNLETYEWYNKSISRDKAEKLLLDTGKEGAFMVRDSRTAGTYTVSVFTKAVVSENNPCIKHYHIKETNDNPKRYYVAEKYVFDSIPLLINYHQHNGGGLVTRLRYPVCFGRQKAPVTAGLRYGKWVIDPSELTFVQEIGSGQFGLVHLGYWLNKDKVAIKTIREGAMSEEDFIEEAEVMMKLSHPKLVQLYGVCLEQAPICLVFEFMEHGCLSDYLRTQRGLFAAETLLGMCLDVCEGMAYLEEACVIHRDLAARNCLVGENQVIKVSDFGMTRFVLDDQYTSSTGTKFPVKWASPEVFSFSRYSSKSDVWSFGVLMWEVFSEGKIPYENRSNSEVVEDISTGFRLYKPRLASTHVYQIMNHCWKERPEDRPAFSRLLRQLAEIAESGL
Chain of UniProt Q00532 (whole entry, looked up): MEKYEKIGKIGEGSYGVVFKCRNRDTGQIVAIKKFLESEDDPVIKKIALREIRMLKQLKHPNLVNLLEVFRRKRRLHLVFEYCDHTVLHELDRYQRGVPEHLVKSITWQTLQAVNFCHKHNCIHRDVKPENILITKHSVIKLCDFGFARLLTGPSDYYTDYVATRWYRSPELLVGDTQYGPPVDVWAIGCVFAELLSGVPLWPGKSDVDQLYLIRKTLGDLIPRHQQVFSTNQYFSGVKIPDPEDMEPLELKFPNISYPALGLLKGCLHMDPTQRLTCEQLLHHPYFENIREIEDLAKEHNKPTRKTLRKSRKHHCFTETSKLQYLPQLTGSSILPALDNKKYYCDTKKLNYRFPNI
Chain of UniProt Q9UIK4 (whole entry, looked up): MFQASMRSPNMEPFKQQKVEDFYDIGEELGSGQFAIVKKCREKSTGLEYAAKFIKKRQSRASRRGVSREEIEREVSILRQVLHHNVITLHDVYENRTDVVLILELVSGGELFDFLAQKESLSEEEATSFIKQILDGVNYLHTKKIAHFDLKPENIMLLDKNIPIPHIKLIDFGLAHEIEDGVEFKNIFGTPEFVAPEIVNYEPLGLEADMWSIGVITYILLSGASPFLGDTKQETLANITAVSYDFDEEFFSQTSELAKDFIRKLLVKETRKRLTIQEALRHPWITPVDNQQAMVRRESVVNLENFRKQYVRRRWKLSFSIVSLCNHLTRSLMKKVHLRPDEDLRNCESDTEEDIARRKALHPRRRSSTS

Series 1
Target: Activin receptor type-1-like (ACVRL1, Homo sapiens, UniProt P37023)
Chain of UniProt P37023 (whole entry, looked up): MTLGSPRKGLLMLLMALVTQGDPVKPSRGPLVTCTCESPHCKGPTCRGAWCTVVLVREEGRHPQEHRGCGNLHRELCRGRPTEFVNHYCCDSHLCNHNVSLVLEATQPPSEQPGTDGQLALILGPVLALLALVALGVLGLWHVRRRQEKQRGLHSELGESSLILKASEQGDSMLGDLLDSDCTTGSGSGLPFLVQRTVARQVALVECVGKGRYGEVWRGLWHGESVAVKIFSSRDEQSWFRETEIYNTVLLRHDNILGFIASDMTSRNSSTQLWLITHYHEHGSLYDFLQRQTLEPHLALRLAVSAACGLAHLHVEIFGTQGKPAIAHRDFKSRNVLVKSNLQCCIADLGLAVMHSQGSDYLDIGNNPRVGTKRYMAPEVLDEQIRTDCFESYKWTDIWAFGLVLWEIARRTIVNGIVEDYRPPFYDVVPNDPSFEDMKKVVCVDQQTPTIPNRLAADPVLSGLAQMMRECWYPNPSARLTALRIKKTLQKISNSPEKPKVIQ
Effect on: enzyme activity
Action: inhibitor
Tested at: 0.5 µM
Reference: control
Endpoint: remaining activity
SMILES = COc1cc2ncnc(Nc3ccc(O)c(Br)c3)c2cc1OC; value = 102%
SMILES = Cc1cc2ncc(-c3ccccc3)nc2cc1C; value = 97.9%
SMILES = CN(C)C[C@H]1CCn2c(c(C3=C(c4cn(C)c5ccccc45)C(=O)NC3=O)c3ccccc32)C1; value = 98.5%
SMILES = N#Cc1c(NC(=O)c2cccc3ccccc23)sc2c1CCCC2; value = 107%
SMILES = N#C/C(=C\c1ccc(O)c(O)c1)C(=O)NCc1ccccc1; value = 106%
SMILES = CCN(CC)CCNC(=O)c1c(C)[nH]c(/C=C2\C(=O)Nc3ccc(Cl)cc32)c1C; value = 89%
SMILES = Nc1cccc(-c2cc3c(Oc4cccc(O)c4)ncnc3[nH]2)c1; value = 70.3%
SMILES = Cc1nc2cc3nc(-c4cccs4)cnc3cc2n1C; value = 109%
SMILES = O=C(NC(NC(=S)Nc1ccc(F)c([N+](=O)[O-])c1)C(Cl)(Cl)Cl)C(c1ccccc1)c1ccccc1 (stereo not drawn); value = 107%
SMILES = C[C@@H]1CCN(C(=O)CC#N)C[C@@H]1N(C)c1ncnc2[nH]ccc12; value = 100%
SMILES = CN([C@@H](Cc1ccc(OS(=O)(=O)c2cccc3cnccc23)cc1)C(=O)N1CCN(c2ccccc2)CC1)S(=O)(=O)c1cccc2cnccc12; value = 103%
SMILES = COc1cc2c(cc1OC)-c1[nH]nc(Nc3cccc(F)c3)c1C2; value = 102%
SMILES = c1ccc(-c2cnc(Nc3ccc(OCCN4CCCC4)cc3)s2)cc1; value = 108%
SMILES = c1ccc(-c2[nH]ncc2-c2ccnc3ccccc23)nc1; value = 102%
SMILES = O=C1c2ccccc2-c2n[nH]c3cccc1c23; value = 112%
SMILES = O=C1C(Cl)=C(N2C(=O)CCC2=O)C(=O)c2ccccc21; value = 105%
SMILES = COc1cc2ncnc(Nc3cccc(Cl)c3)c2cc1OC; value = 96.4%
SMILES = O=c1cc(-c2cccc3c2Sc2ccccc2S3)oc(N2CCOCC2)c1; value = 99.9%
SMILES = Ic1cccc(CSc2nnc(-c3ccncc3)o2)c1; value = 103%
SMILES = CCN(CC)C(=O)c1ccc(Nc2nc(OCC3CCCCC3)c3[nH]cnc3n2)cc1; value = 106%
SMILES = CCOc1nc(NC(=O)Cc2cc(OC)ccc2OC)cc(N)c1C#N; value = 107%
SMILES = Cc1cn(-c2cc(NC(=O)c3ccc(C)c(Nc4nccc(-c5cccnc5)n4)c3)cc(C(F)(F)F)c2)cn1; value = 116%
SMILES = O=C(Nc1cccc(Nc2nccc(Nc3cccc(C(F)(F)F)c3)n2)c1)C1CC1; value = 84.6%
SMILES = Cn1nc2c3c(cccc31)C(=O)c1ccccc1-2; value = 102%

Series 2
Structure (SMILES): CC(C)n1cnc(-c2ccc(F)cc2)c1-c1ncc(C(=O)Nc2ccc(N3CCN(C)CC3)cc2)[nH]1
Technique: phase 2a clinical trial
Species: patients with idiopathic pulmonary fibrosis
Endpoint: patients with treatment-emergent adverse events
assay = refers to: carbon dioxide decreased; setting = 30 mg once daily, Grade 3; value = 0%
assay = refers to: investigations (SOC); setting = dose not given, Grade 4, all drug arms total; value = 0%
assay = refers to: benign prostatic hyperplasia; setting = dose not given, Grade 3, maximum intensity, all drug arms total; value = 0%
assay = refers to: electrocardiogram T wave abnormal; setting = dose not given, Grade 1, all drug arms total; value = 0%
assay = refers to: electrocardiogram high voltage; setting = dose not given, Grade 2, all drug arms total; value = 0%
assay = refers to: hepatic function abnormal; setting = dose not given, Grade 5, all drug arms total; value = 0%
assay = refers to: left ventricular dysfunction; setting = dose not given, Grade 2, all drug arms; value = 0%
assay = refers to: interstitial lung disease; setting = 30 mg once daily, Grade 1; value = 0%
assay = refers to: lumbar vertebral fracture; setting = dose not given, Grade 2, maximum intensity, all drug arms total; value = 0%
assay = refers to: electrocardiogram T wave abnormal; setting = dose not given, Grade 4, all drug arms total; value = 0%
assay = refers to: drug-induced liver injury; setting = 60 mg once daily, Grade 3; value = 0%
assay = refers to: electrocardiogram QT prolonged; setting = 30 mg once daily, Grade 2; value = 0%
assay = refers to: idiopathic pulmonary fibrosis; setting = 30 mg once daily, Grade 2; value = 0%
assay = refers to: electrocardiogram QT prolonged; setting = 30 mg once daily, Grade 1; value = 0%
assay = refers to: metabolism and nutrition disorders (SOC); setting = dose not given, Grade 3, all drug arms total; value = 0%

Series 3
Compound: CN1CCN(C(=O)c2ccc(NC(=O)Nc3ccc(N(C)c4ccnc(Nc5ccc(CS(C)(=O)=O)cc5)n4)cc3)cc2)CC1
Effect on: binding
Tested at: 1 µM
Endpoint: remaining binding
target = Cyclin-dependent kinase 11A (CDK11A, Homo sapiens, UniProt Q9UQ88); value = 51%
target = Serine/threonine-protein kinase WNK1 (WNK1, Homo sapiens, UniProt Q9H4A3); value = 94%
target = Mitogen-activated protein kinase kinase kinase 13 (MAP3K13, Homo sapiens, UniProt O43283); assay = competition with immobilised ligand; value = 70%
target = Ribosomal protein S6 kinase alpha-2, N-terminal kinase domain (RPS6KA2, Homo sapiens, UniProt Q15349); assay = competition with immobilised ligand; value = 84%
target = Receptor tyrosine-protein kinase erbB-2 (ERBB2, Homo sapiens, UniProt P04626); assay = competition with immobilised ligand; value = 100%
target = Serine/threonine-protein kinase PLK4 (PLK4, Homo sapiens, UniProt O00444); assay = competition with immobilised ligand; value = 2.7%
target = Tyrosine-protein kinase ITK/TSK (ITK, Homo sapiens, UniProt Q08881); value = 98%
target = Serine/threonine-protein kinase haspin (HASPIN, Homo sapiens, UniProt Q8TF76); value = 92%
target = Casein kinase I isoform delta (CSNK1D, Homo sapiens, UniProt P48730); value = 99%
target = Serine/threonine-protein kinase TAO3 (TAOK3, Homo sapiens, UniProt Q9H2K8); assay = competition with immobilised ligand; value = 83%
target = Serine/threonine-protein kinase Nek1 (NEK1, Homo sapiens, UniProt Q96PY6); value = 63%
target = Mitogen-activated protein kinase kinase kinase 4 (MAP3K4, Homo sapiens, UniProt Q9Y6R4); assay = competition with immobilised ligand; value = 4%
target = Serine/threonine-protein kinase Nek2 (NEK2, Homo sapiens, UniProt P51955); assay = competition with immobilised ligand; value = 89%
target = Tyrosine-protein kinase SYK (SYK, Homo sapiens, UniProt P43405); assay = competition with immobilised ligand; value = 34%
target = Myotonin-protein kinase (DMPK, Homo sapiens, UniProt Q09013); assay = competition with immobilised ligand; value = 100%
target = BDNF/NT-3 growth factors receptor (NTRK2, Homo sapiens, UniProt Q16620); assay = competition with immobilised ligand; value = 11%

Series 4
SMILES: O=C(NCc1ncc(C(F)(F)F)cc1Cl)c1ccc2c(c1)C1(CCS(=O)(=O)CC1)[C@H](C1CC1)N2S(=O)(=O)c1ccc(F)cc1
Technique: competition with immobilised ligand
Tested at: 1 µM
Endpoint: remaining binding
target = Ephrin type-A receptor 3 (EPHA3, Homo sapiens, UniProt P29320); assay = cell-free assay; value = 100%
target = Mast/stem cell growth factor receptor Kit (KIT, Homo sapiens, UniProt P10721, L576P); assay = cell-free assay; value = 100%
target = Tyrosine-protein kinase ABL1, non-phosphorylated (ABL1, Homo sapiens, UniProt P00519, F317I); assay = binding; value = 83%
target = Cyclin-dependent kinase-like 1 (CDKL1, Homo sapiens, UniProt Q00532); assay = cell-free assay; value = 90%
target = Tyrosine-protein kinase ABL1, non-phosphorylated (ABL1, Homo sapiens, UniProt P00519, Q252H); assay = cell-free assay; value = 100%
target = Serine/threonine-protein kinase pim-1 (PIM1, Homo sapiens, UniProt P11309); assay = cell-free assay; value = 100%
target = 3-phosphoinositide-dependent protein kinase 1 (PDPK1, Homo sapiens, UniProt O15530); assay = cell-free assay; value = 91%
target = Epidermal growth factor receptor (EGFR, Homo sapiens, UniProt P00533); assay = cell-free assay; value = 95%
target = Serine/threonine-protein kinase 17A (STK17A, Homo sapiens, UniProt Q9UEE5); assay = cell-free assay; value = 100%
target = Insulin receptor-related protein (INSRR, Homo sapiens, UniProt P14616); assay = cell-free assay; value = 100%
target = Serine/threonine-protein kinase 32C (STK32C, Homo sapiens, UniProt Q86UX6); assay = cell-free assay; value = 100%
target = Serine/threonine-protein kinase PAK 3 (PAK3, Homo sapiens, UniProt O75914); assay = cell-free assay; value = 91%
target = Cyclin-dependent kinase 16 (CDK16, Homo sapiens, UniProt Q00536); assay = cell-free assay; value = 100%
target = Death-associated protein kinase 2 (DAPK2, Homo sapiens, UniProt Q9UIK4); assay = cell-free assay; value = 99%
target = Tyrosine-protein kinase CSK (CSK, Homo sapiens, UniProt P41240); assay = cell-free assay; value = 97%
target = Mast/stem cell growth factor receptor Kit, autoinhibited (KIT, Homo sapiens, UniProt P10721); assay = cell-free assay; value = 76%
target = Mitogen-activated protein kinase kinase kinase kinase 5 (MAP4K5, Homo sapiens, UniProt Q9Y4K4); assay = cell-free assay; value = 82%
target = Tyrosine-protein kinase ABL1, phosphorylated (ABL1, Homo sapiens, UniProt P00519, F317L); assay = cell-free assay; value = 88%
target = Tyrosine-protein kinase TXK (TXK, Homo sapiens, UniProt P42681); assay = binding; value = 100%
target = Mitogen-activated protein kinase 3 (MAPK3, Homo sapiens, UniProt P27361); assay = cell-free assay; value = 100%

For quick reference, copied from above (series 4):
target = Tyrosine-protein kinase ABL1, non-phosphorylated (ABL1, Homo sapiens, UniProt P00519, F317I); assay = binding; value = 83%
target = Cyclin-dependent kinase-like 1 (CDKL1, Homo sapiens, UniProt Q00532); assay = cell-free assay; value = 90%
target = Tyrosine-protein kinase ABL1, non-phosphorylated (ABL1, Homo sapiens, UniProt P00519, Q252H); assay = cell-free assay; value = 100%
target = Serine/threonine-protein kinase pim-1 (PIM1, Homo sapiens, UniProt P11309); assay = cell-free assay; value = 100%
target = 3-phosphoinositide-dependent protein kinase 1 (PDPK1, Homo sapiens, UniProt O15530); assay = cell-free assay; value = 91%
target = Epidermal growth factor receptor (EGFR, Homo sapiens, UniProt P00533); assay = cell-free assay; value = 95%
target = Serine/threonine-protein kinase 17A (STK17A, Homo sapiens, UniProt Q9UEE5); assay = cell-free assay; value = 100%
target = Insulin receptor-related protein (INSRR, Homo sapiens, UniProt P14616); assay = cell-free assay; value = 100%
